Assay results gathered from unrelated publications.
Lines come from different studies, so protocols differ. ± marks the error that the study gave.

| SMILES | test | test system | setting | how to read | endpoint | value |
| --- | --- | --- | --- | --- | --- | --- |
| OC[C@H]1O[C@@H](c2ccc(F)c(Cc3cc4ccccc4s3)c2)[C@H](O)[C@@H](O)[C@@H]1O | – | Japanese type 2 diabetes patients | oral, 50 mg/day, day 14 | – | CL/F | 8.96 ± 1.88 L/h |
| O=C(Nc1cnccc1Cl)N1CCN(Cc2ccc3c(c2)OC(F)(F)O3)CC1 | – | healthy young men, plasma | oral, 25 mg once daily, day 10 | – | CL/F | 12.5 L/h |
| N#CC[C@H](C1CCCC1)n1cc(-c2ncnc3[nH]ccc23)cn1 | – | children over 12 years, plasma | oral, BSA-corrected | – | CL/F | 10.2 ± 3.1 L/h/m² |
| CC[C@@H]1CN(C(=O)NCC(F)(F)F)C[C@@H]1c1cnc2cnc3[nH]ccc3n12 | population PK model | healthy, RA and CD subjects, plasma | oral, immediate-release formulation | relative to: RA patients over non-RA subjects | CL/F ratio | 0.779 |
| O=C(c1cccnc1-c1ccncc1)N1CCC(O)(Cc2ccccc2)CC1 | – | healthy Japanese adults, plasma | 600 mg single dose | – | CL/F | 178 L/h |
| CCCCCCCCCCCCCCCC(=O)N[C@@H](CCC(=O)NCCCC[C@@H]1NC(=O)[C@H]([C@@H](C)CC)NC(=O)[C@@H](NC(=O)[C@@H]2CCCN2C(=O)[C@H](Cc2ccccc2)NC(=O)[C@H](Cc2c[nH]cn2)NC(=O)[C@@H](NC(=O)[C@H](CC(=O)O)NC(=O)CC(C)C)[C@@H](C)O)CSSC[C@@H](C(=O)N[C@@H](CCCCN)C(N)=O)NC(=O)CNC(=O)[C@H](CCCCN)NC(=O)[C@H](CO)NC(=O)[C@H](CCCNC(=N)N)NC(=O)[C@@H]2CCCN2C(=O)[C@H](CCC(=O)O)NC(=O)[C@H](Cc2ccccc2)NC1=O)C(=O)O | – | healthy volunteers, plasma | subcutaneous, 10 mg single, lyophilised formulation | – | CL/F | 0.629 ± 0.123 L/h |
| CO[C@H]1CC[C@H](N2C(=O)CNc3ncc(-c4ccc(C(C)(C)O)nc4)nc32)CC1 | – | patients, plasma | 60 mg, day -1, geometric mean | – | CL/F | 28.9 L/h |
| C[C@@H](N)C1CCN(S(=O)(=O)c2cccc3cnccc23)CC1 | – | healthy volunteers, fasted, plasma | oral, 150 mg | – | CL/F | 4820 L/h |
